Experimental data of several laboratories.
Compare with care: the assays were run in different laboratories. Values joined by “and” are separate records of one study, mostly repeats; a detail may differ.

| SMILES | system | setting | AUC(0-tau) |
| --- | --- | --- | --- |
| CCOc1c([C@H](C)n2nc(C)c3c(N)ncnc32)cc(Cl)c(F)c1[C@@H]1CNC(=O)C1 | human, DLBCL, plasma | oral, 20 mg, day 15, geometric mean | 13.5 µM·h |
| Cc1cc(/C=C/C#N)cc(C)c1Nc1ccnc(Nc2ccc(C#N)cc2)n1 | human, normal renal function, plasma | oral, dose not given, steady state | 2300 ng·h/mL |
| CN1CC[C@@H](NC(=O)Nc2ccc(C#N)cc2)C[C@@H]1c1nc2ccccc2[nH]1 | human | oral, 100 mg once daily, induction cycle day 10, given alone | 18100 ng·h/mL |
| N#CCNC(=O)c1ccc(-c2ccnc(Nc3ccc(N4CCOCC4=O)cc3)n2)cc1 | healthy human volunteers, plasma | 100 mg momelotinib once daily, day 7, fed, momelotinib alone | 1780 ng·h/mL |
| CC(C)C[C@H](NC(=O)[C@H](CC(C)C)NC(=O)[C@H](Cc1c[nH]c2ccccc12)NC(=O)[C@H](CCC(=O)O)NC(=O)[C@@H](NC(=O)[C@H](Cc1ccccc1)NC(=O)[C@H](CCC(=O)O)NC(=O)[C@H](CCCCNC(=O)COCCOCCNC(=O)COCCOCCNC(=O)CC[C@H](NC(=O)CCCCCCCCCCCCCCCCCCC(=O)O)C(=O)O)NC(=O)[C@H](C)NC(=O)[C@H](CCCCN)NC(=O)[C@H](CCCCN)NC(=O)[C@H](CCC(=O)O)NC(=O)[C@H](CC(=O)O)NC(=O)[C@H](CC(C)C)NC(=O)[C@H](Cc1ccc(O)cc1)NC(=O)[C@H](CCCCN)NC(=O)[C@H](CO)NC(=O)[C@H](Cc1ccc(O)cc1)NC(=O)[C@H](CC(=O)O)NC(=O)[C@H](CO)NC(=O)[C@@H](NC(=O)[C@H](Cc1ccccc1)NC(=O)[C@@H](NC(=O)CNC(=O)[C@H](CCC(N)=O)NC(=O)C(C)(C)NC(=O)[C@@H](N)Cc1c[nH]cn1)[C@@H](C)O)[C@@H](C)O)C(C)C)C(=O)N[C@@H](CCC(=O)O)C(=O)NCC(=O)NCC(=O)N1CCC[C@H]1C(=O)N[C@@H](CO)C(=O)N[C@@H](CO)C(=O)NCC(N)=O | human, plasma | subcutaneous, 16 mg weekly, week 20, cohorts 1 and 2 | 689000 ng·h/mL |
| CCCCOCCOc1ccc(-c2ccc3c(c2)/C=C(/C(=O)Nc2ccc([S@@+]([O-])Cc4cncn4CCC)cc2)CCCN3CC(C)C)cc1 | human, moderate hepatic impairment, plasma | oral, 150 mg, day 1, geometric mean | 4400 ng·h/mL |
| CCN1CCN(Cc2ccc(Nc3ncc(F)c(-c4cc(F)c5nc6n(c5c4)[C@H](C)CCC6)n3)nc2)CC1 | human, plasma | 200 mg multiple dosing, mean | 5630 ng·h/mL |
| Cc1noc(C)c1-c1cc(C(O)(c2ccccn2)c2ccccn2)c2nc(C3CC3)[nH]c2c1 | human patients, fasted, plasma | oral, 6 mg once daily, cycle 1 day 15, added: enzalutamide once daily | 701 ng·h/mL |
| COC[C@@H](c1ccc(C(F)(F)F)cc1)N1CCN(C2(C)CCN(C(=O)c3c(C)ncnc3C)CC2)C[C@@H]1C | human | oral, 10 mg once daily, steady state, population PK, added: ritonavir | 2500 ng·h/mL |
| Cl.[2H]C([2H])([2H])CC(=O)c1cnc(NC(=O)C2CC2)cc1Nc1cccc(-c2ncn(C([2H])([2H])[2H])n2)c1OC | human, fed, multiple dose | oral, 30 mg twice daily, tablet, day 1, geometric mean | 1210 ng·h/mL |
| Cc1ncnc2c1ccn2[C@@H]1C[C@H](Oc2cc(C(F)F)c(F)c3c2CNCC3)[C@@H](O)[C@H]1O | human | oral, 1 mg twice daily | 201 ng·h/mL and 98.9 ng·h/mL |
| C[C@H]1CNCCCN1S(=O)(=O)c1cccc2cncc(F)c12 | human, male, plasma | ocular instillation, 1 drop per eye twice daily, day 8 | 0.17 ng·h/mL |
| Cc1cc(C)c(CNC(=O)c2cc(Cl)c3c(c2C)O[C@@](C)([C@H]2CC[C@H](N(C)C)CC2)O3)c(=O)[nH]1 | human, NHL patients, plasma | oral, 200 mg/day, cycle 1 day 1, once daily | 14100 ng·h/mL |
| CC(C)NC(=O)COc1cccc(-c2nc(Nc3ccc4[nH]ncc4c3)c3ccccc3n2)c1 | human male, plasma | oral, 200 mg once daily, day 13, fed, geometric mean, added: rosuvastatin | 12900 ng·h/mL |
| Nc1c2c(cc3c1CCC3)CCC2 | human, plasma | oral, 300 mg twice daily of GDC-2394, day 7, multiple ascending dose | 200 ng·h/mL |
| Nc1ccn([C@@H]2O[C@H](CO)[C@@H](O)[C@@H]2O)c(=O)n1 | human | subcutaneous, 20 mg, cycle 1 day 2, given alone | 70.1 ng·h/mL |
| O=C(O)CCC(=O)O.[2H]C([2H])([2H])Oc1cc(C)c2[nH]ccc2c1CN1CC[C@@H](C2CC2)C[C@H]1c1ccc(C(=O)O)cc1 | human, plasma | 100 mg twice daily, day 1, multiple ascending dose, geometric mean | 15700 ng·h/mL |

A few entries again:
| SMILES | system | setting | AUC(0-tau) |
| --- | --- | --- | --- |
| Cl.[2H]C([2H])([2H])CC(=O)c1cnc(NC(=O)C2CC2)cc1Nc1cccc(-c2ncn(C([2H])([2H])[2H])n2)c1OC | human, fed, multiple dose | oral, 30 mg twice daily, tablet, day 1, geometric mean | 1210 ng·h/mL |
